Measurements gathered from unrelated publications.
A part holds a random share of what one study measured. Positions count from the first letter of the parent shown.

Sample 1 — target: CCNA1, cyclin fold, Cln2 fusion (human); technique: yeast growth competition, sequencing; sample: yeast; setting: weak parent motif; relative to: not given; reading: higher = stronger binding; quantity: normalised enrichment score
Starting sequence: PKMYT1 docking peptide (human); SFEPRNLLSLFED
Change = E12N; result = -0.0194
Change = E12Q; result = -0.285
Change = S9E; result = 0.231

Sample 2 — technique: aptamer microarray, sandwich; molecule type: DNA with 2'F-ANA; sample: in vitro; tested at: 200 nM; together with: Cy3 exosite-II aptamer, 400 nM; reading: higher = stronger binding; quantity: mean fluorescence intensity; sequence: GGTTGGTGTGGTTGG
Target: Prothrombin, mature alpha-thrombin (F2, Homo sapiens, UniProt P00734)
Setting: whole 15-mer aptamer, many near background
Modification = 2'F-ANA at 2 4 6 7 9 11 12 13 14 15; result = 76.7 a.u.
Modification = 2'F-ANA at 2 4 5 7 8 10 11 12 14; result = 48.1 a.u.
Modification = 2'F-ANA at 2 3 4 8 9 11 12 13 14; result = 245 a.u.
Modification = 2'F-ANA at 1 3 4 6 8 10 13 15; result = 163 a.u.
Modification = 2'F-ANA at 1 2 3 4 6 7 9 10 12 13 14 15; result = 61.7 a.u.

Sample 3 — technique: RNA Bind-n-Seq; molecule type: RNA; sample: in vitro; tested at: 365 nM; relative to: no-protein control; reading: higher = stronger binding; quantity: RBNS enrichment (R)
Target: RNA binding protein fox-1 homolog 2, RRM domain, GST-SBP tag (RBFOX2, Homo sapiens, UniProt O43251-10, residues 100-194)
Setting: natural RNA segment, single round, ends assumed
All sequences stand within: GGGAGUUCUACAGUCCGACGAUC … UGGAAUUCUCGGGUGCCAA
Construct (chain): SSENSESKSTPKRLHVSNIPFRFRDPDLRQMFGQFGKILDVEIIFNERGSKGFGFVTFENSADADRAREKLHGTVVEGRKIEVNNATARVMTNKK
Sequence = UAGCCUAUGACCCAAGACUGUUUGUGGCCUUAGGAACAAUUGCUUAAGCAGGUCAAGCAUUUUGAAUUUCAAUGUAGGCCUUCAGGAUCUUCUCACAUGAGGUCAACUGC; result = 0.419
Sequence = AGAGCUCGAGAAUGAACUGAACACAAAUGAGAAGAGAGAGGUCUGCCCUUGGCGGGAGCUUUGUGGGGGCGAGCCUGAAGAGGAAGGAACAGUGCUACUUCUAAGUGAUG; result = 1.72
Sequence = CCAGGUGAUUUUGUUUUCAAAUGCUCCUUGUGAAAACACCUAGUGUUGUAGAAAGGAAAGUGGCCAGAAAGAACAACUUGGGACCAUGAGUAGGUCAUUAAAUAGCUUAG; result = 0.225
Sequence = GUUUCCUAAUAUUUCAAAGGUUCCAAAGGAUCUAGAGCUCUCUAGUUACAUAGCAUUCAUAUAGGAAUGAGCAGAGACAUCUGAGAAGAGUGGGAGCUCAUGGGUGACAG; result = 0.61
Sequence = CCAGUUGAACUUUCUAAGUCUGUGAUCCCCGUGCUGACUGUGGAAGUGUAUUUAUACCAAGAUGGAGAUCUUGACUUCUUGAAUAUAUCUGGACUGGUAAAAUCUUGAUG; result = 0.504

Single results of other studies
Molecule = PhoQ, residues 284 288 289 292 302 303 AQGLTV; target = PhoP, residues 12 14 15 18 19 SQCLL (Escherichia coli, UniProt P23836); assay = Sort-seq, refers to: YFP reporter; test system = E. coli; setting = PhoQ-PhoP variant library, together with: 10 µM Mg2+; scale = relative to: high Mg2+ state, higher = stronger signaling; quantity = fold induction; result = 2.22
